Measurements collected from several papers.
Lines come from different studies, so protocols differ.

SMILES	test	test system	conditions	scale	quantity	value
Cc1cc(NC2CCN(C(=O)OC3CCN(C(=O)/C=C/CN(C)C)C3)CC2)n2ncc(C(C)C)c2n1 (centres unmarked)	Phase I dose escalation CTCAE v4.0, refers to: abdominal pain	patients with advanced solid tumours	dose not given, TIW dosing grade 3 or higher	–	patients with adverse event	9%
FC(F)(F)c1ccc(CNc2ccc(Cc3c[nH]c4ncc(Cl)cc34)cn2)cn1	refers to: hair colour changes	advanced solid tumour patients	oral, 1000 mg/day, all grades, all cohorts	–	patients with treatment-related adverse event	48%
COc1ccc([C@@H](O)c2cc(-c3ncnc4cc(N5CCOCC5)ccc34)c(F)cc2Cl)nn1	–	locally advanced rectal cancer patients	250 mg, drug-related adverse events, together with: capecitabine and radiotherapy	–	patients with diarrhea	67%
CCOc1c([C@H](C)n2nc(C)c3c(N)ncnc32)cc(Cl)c(F)c1[C@@H]1CNC(=O)C1	refers to: QTcF change above 60 ms	previously treated B-cell malignancy	oral, 5 mg once daily, overall population	reference: baseline	patients	0%
COc1cc(Nc2ncc3c(n2)-c2ccc(Cl)cc2C(c2c(F)cccc2OC)=NC3)ccc1C(=O)O	–	cancer patients	oral, dose not given, all grades any attribution, together with: pembrolizumab	–	patients with febrile neutropenia	8%
NC(=O)N1c2ccccc2C=Cc2ccccc21	–	male patients	oral, dose not given, treatment-related adverse events	–	patients with Fatigue	27%
Cc1cc(-c2nnc(N)nc2-c2ccc(F)cc2)cc(Cl)n1	refers to: Vomiting	other solid tumours, IO-naive	oral, 100 mg once daily, all grades	–	patients with treatment-related AE	21.1%
CNC(=O)c1ccc(-c2cnc3ncc(Cc4ccc5ncccc5c4)n3n2)cc1F	refers to: Asthenia	gastric cancer patients	oral, 600 mg twice daily, expansion cohort, grade 3-4	–	patients with adverse event	0%
C[C@@H](Nc1cc(F)cc(F)c1)c1cc(C(=O)N(C)C)cc2c(=O)cc(N3CCOCC3)oc12	CTCAE v4, refers to: any AE	patients with advanced solid tumours	oral, dose not given, phase I dose finding	–	patients discontinuing for AE	17.5%
CC(C)C[C@H](NC(=O)CNC(=O)c1cc(Cl)ccc1Cl)B(O)O	refers to: Hyponatraemia, all grades	newly diagnosed multiple myeloma patients	oral, dose not given, maintenance phase, new onset, cycle 17 or later	–	patients with adverse event	0%
O=C(Nc1nc2cccc(-c3ccc(CN4CCS(=O)(=O)CC4)cc3)n2n1)C1CC1	–	rheumatoid arthritis patients	oral, 100 mg twice daily, 4 weeks, TEAE regardless of relatedness	–	patients with Pharyngitis	0%
